Experimental data pooled from the literature.
Lines come from different studies, so protocols differ. Numbers after ± are the reported error.
Chrna3/Chrnb2/Chrna6 with beta3 subunit: Chrna3/Chrnb2/Chrna6, with beta3 subunit (Rattus norvegicus, UniProt P04757+P12390+P43143)
NOX5: NADPH oxidase 5 (NOX5, Homo sapiens, UniProt Q96PH1)
Neuronal acetylcholine receptor; alpha3/beta2: Neuronal acetylcholine receptor; alpha3/beta2 (Rattus norvegicus, UniProt P04757+P12390)
Salicylate synthetase, Irp9: Salicylate synthetase, Irp9 (Yersinia enterocolitica, UniProt Q9X9I8)
NOX1: NADPH oxidase 1 (NOX1, Homo sapiens, UniProt Q9Y5S8)
CYBB: NADPH oxidase 2 (CYBB, Homo sapiens, UniProt P04839)
ache: Acetylcholinesterase (ache, Electrophorus electricus, UniProt O42275)

Amino acid sequences for entries named in this document (tags omitted). Residues count along the entry.
UniProt P04757, 26-499 limits assumed: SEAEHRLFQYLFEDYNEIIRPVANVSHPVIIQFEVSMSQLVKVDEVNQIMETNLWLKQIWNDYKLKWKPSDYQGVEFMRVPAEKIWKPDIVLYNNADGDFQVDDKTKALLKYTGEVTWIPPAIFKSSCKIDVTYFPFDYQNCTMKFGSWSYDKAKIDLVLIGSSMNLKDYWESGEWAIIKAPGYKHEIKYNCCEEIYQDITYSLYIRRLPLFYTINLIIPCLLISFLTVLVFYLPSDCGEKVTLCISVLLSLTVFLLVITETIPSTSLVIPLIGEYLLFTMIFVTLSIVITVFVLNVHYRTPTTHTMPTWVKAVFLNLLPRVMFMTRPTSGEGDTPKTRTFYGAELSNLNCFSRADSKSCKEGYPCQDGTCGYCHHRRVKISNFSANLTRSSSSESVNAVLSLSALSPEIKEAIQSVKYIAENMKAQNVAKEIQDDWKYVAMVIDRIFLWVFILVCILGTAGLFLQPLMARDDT
UniProt P04757, whole entry, looked up: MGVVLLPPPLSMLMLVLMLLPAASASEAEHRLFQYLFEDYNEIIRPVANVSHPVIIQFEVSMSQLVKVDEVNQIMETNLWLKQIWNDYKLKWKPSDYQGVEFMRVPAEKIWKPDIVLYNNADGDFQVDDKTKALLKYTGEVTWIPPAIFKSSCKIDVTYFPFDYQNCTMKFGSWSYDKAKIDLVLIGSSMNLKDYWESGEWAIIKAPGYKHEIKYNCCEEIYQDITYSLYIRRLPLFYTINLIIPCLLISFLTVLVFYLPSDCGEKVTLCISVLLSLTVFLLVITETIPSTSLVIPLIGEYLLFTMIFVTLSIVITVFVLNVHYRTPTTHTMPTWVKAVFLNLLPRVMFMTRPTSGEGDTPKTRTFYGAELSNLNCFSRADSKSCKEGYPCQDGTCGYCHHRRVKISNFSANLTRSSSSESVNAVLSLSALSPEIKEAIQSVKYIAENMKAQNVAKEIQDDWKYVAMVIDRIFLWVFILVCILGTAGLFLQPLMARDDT
UniProt P12390, 25-500 limits assumed: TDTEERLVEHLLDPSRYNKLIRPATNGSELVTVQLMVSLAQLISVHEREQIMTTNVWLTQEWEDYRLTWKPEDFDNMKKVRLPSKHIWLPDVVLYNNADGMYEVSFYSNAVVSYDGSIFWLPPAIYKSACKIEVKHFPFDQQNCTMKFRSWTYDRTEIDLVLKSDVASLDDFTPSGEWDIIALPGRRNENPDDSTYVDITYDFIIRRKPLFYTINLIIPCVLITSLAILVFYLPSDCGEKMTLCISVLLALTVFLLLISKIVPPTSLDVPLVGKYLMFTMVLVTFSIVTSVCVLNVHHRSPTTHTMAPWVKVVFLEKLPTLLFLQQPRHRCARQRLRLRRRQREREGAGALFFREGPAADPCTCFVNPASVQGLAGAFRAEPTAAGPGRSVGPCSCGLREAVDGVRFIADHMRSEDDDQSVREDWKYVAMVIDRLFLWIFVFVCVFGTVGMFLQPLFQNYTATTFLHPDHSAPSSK
UniProt P12390, whole entry, looked up: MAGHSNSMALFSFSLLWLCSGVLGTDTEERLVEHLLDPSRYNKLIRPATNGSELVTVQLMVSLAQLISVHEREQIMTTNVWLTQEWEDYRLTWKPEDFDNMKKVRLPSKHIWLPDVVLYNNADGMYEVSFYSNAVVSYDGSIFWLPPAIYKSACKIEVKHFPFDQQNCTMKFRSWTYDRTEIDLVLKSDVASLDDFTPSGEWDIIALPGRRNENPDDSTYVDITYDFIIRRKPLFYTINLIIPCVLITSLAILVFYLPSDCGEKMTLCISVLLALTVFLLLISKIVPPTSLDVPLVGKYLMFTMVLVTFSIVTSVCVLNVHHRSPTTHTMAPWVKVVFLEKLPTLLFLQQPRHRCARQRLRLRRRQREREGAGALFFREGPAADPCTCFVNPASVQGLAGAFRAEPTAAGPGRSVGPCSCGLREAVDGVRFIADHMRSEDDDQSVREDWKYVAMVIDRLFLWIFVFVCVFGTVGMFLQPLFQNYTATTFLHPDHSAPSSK
UniProt P43143, whole entry M241L/F253L/V303I/V320I/I327V/A333T/K339T, looked up: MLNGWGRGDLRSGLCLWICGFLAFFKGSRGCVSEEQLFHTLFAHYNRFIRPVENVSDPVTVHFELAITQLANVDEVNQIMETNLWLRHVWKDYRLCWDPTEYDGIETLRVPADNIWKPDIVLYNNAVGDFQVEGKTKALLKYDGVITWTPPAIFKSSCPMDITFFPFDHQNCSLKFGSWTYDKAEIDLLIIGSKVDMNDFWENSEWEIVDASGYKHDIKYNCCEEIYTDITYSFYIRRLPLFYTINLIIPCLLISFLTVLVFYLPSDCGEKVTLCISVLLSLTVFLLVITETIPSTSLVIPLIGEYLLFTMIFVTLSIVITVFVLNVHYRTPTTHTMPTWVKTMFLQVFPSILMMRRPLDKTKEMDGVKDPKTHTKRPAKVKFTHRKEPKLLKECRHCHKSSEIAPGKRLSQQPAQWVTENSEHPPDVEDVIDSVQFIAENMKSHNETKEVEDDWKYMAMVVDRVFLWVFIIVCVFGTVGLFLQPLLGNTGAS
UniProt Q9X9I8, 1-434: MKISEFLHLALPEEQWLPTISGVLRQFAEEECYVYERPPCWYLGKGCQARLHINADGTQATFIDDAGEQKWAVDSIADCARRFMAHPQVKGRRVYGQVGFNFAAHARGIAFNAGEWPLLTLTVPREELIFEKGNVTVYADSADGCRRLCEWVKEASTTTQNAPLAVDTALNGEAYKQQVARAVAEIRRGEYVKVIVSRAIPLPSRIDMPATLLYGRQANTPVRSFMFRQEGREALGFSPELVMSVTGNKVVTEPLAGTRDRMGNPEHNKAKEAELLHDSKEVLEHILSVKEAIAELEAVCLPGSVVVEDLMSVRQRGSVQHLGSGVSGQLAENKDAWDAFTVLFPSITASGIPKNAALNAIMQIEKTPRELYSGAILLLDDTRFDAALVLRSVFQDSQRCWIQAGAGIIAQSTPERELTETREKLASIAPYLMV
UniProt Q9Y5S8, whole entry: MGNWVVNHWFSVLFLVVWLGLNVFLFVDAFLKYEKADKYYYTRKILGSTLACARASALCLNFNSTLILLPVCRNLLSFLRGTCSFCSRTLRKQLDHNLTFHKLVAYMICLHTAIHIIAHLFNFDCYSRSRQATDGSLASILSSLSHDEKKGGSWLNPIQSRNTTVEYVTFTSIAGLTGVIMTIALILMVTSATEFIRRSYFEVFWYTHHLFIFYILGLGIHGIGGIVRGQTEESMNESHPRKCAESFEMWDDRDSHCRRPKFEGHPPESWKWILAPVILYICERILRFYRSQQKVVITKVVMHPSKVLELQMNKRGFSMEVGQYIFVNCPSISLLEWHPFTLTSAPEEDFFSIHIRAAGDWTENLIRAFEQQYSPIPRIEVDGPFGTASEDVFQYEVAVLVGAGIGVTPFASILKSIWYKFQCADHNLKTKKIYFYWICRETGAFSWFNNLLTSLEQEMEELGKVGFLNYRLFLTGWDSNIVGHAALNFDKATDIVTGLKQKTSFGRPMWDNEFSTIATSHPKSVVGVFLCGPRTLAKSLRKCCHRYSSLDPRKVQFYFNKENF
UniProt Q51507, whole entry: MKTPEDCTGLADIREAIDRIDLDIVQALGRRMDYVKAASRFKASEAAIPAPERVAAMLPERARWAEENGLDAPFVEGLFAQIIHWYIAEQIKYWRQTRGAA
UniProt P17405, 47-631 limits assumed: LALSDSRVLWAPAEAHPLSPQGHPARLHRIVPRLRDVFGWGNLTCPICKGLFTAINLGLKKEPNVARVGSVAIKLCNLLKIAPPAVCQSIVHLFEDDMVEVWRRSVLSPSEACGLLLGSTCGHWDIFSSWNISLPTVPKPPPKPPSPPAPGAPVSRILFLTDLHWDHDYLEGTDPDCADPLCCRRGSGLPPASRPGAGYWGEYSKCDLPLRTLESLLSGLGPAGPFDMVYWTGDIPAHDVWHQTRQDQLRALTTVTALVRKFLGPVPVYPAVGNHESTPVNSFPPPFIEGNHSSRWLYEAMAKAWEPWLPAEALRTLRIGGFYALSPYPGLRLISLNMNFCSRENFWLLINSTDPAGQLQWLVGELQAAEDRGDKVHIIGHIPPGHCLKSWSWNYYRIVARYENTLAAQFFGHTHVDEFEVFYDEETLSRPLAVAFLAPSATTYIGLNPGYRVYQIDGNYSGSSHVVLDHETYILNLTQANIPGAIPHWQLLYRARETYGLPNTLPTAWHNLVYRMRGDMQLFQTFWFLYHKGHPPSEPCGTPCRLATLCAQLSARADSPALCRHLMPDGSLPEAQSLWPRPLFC
UniProt Q8BLA8, whole entry: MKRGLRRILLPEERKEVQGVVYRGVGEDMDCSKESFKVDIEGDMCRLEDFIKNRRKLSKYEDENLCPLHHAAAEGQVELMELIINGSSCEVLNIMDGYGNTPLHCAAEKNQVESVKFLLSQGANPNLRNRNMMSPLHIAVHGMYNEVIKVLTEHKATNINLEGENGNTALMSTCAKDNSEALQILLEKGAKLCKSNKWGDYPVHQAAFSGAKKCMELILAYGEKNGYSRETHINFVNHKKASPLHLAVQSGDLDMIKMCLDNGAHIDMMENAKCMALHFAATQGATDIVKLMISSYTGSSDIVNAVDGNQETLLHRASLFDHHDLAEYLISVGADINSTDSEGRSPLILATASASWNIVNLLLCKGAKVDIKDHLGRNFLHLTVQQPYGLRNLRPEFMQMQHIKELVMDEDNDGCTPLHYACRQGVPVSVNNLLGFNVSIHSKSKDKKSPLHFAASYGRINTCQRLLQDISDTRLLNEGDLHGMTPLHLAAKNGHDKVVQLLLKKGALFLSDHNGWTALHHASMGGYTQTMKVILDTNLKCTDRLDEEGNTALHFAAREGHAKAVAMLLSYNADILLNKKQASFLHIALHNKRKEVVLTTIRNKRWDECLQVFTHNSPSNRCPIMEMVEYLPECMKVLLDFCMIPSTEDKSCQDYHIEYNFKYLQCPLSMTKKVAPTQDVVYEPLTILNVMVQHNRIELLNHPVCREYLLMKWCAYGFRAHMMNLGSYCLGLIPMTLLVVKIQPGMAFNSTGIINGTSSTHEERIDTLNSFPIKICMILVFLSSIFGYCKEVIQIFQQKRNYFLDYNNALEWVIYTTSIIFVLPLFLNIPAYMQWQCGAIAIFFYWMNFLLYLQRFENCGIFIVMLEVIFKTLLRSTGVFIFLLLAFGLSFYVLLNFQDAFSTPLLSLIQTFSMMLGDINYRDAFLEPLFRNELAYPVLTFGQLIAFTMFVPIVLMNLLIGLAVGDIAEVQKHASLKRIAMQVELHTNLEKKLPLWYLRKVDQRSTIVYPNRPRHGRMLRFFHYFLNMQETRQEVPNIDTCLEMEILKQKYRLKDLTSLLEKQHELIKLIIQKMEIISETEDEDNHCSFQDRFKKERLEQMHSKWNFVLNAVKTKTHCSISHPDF
UniProt Q05941, 23-502 limits assumed: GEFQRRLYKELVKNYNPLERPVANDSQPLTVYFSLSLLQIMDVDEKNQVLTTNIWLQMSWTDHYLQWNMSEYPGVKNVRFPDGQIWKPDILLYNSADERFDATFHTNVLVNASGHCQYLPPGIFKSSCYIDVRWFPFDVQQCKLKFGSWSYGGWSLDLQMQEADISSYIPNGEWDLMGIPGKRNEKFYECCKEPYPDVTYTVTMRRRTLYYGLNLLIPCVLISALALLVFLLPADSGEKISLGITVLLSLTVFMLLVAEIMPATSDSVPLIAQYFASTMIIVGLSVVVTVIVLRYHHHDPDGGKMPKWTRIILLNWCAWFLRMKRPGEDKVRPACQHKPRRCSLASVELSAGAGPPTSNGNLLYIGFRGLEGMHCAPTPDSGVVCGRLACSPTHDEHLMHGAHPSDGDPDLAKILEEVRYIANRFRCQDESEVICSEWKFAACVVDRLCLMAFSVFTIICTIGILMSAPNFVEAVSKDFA
UniProt Q9NPH5, whole entry: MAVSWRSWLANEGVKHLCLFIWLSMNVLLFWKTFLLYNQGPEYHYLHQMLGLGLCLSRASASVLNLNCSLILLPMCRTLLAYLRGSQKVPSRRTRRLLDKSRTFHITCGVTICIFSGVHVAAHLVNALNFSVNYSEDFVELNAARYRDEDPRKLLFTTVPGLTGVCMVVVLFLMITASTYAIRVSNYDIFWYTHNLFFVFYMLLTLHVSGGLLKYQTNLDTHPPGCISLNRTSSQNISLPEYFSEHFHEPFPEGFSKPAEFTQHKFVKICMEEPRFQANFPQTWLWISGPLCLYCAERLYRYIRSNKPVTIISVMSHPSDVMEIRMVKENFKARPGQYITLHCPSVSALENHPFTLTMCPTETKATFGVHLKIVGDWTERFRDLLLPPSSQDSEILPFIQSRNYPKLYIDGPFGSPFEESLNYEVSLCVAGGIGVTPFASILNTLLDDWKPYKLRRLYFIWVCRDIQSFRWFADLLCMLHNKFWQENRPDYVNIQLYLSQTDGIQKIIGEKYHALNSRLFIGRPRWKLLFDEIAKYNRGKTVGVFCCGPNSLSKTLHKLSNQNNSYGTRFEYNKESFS
UniProt P13498, whole entry partner: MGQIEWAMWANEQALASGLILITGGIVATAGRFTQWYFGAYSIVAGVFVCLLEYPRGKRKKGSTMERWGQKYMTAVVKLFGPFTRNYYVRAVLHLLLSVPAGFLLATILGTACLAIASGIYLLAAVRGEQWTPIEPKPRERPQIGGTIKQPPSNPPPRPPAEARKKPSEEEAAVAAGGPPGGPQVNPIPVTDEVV

Molecule	target	test	test system	setting	IC50 [nM]
methyl arachidonyl fluorophosphonate	exoU (Pseudomonas aeruginosa, UniProt O34208)	phospholipase activity, irreversible inhibitor, PED6 fluorescence		room temperature, together with: SOD1	13.8 ± 1.1
N=C(N)NCCC[C@@H]1NC(=O)[C@@H](NC(=O)CNC(=O)[C@@H]2CCCN2C(=O)[C@@H](N)CCC(N)=O)CSSC[C@@H](C(N)=O)NC(=O)[C@H](Cc2c[nH]c3ccccc23)NC(=O)[C@H](CCCNC(=N)N)NC(=O)[C@H](CO)NC(=O)[C@H](Cc2c[nH]c3ccccc23)NC(=O)[C@H](Cc2c[nH]c3ccccc23)NC1=O	Neuronal acetylcholine receptor; alpha4/beta4 (Homo sapiens, UniProt P30926+P43681)	ion current, antagonist, two-electrode voltage clamp	Xenopus oocytes	together with: ACh 6 µM	2100
CC(C)C[C@@H]1NC(=O)[C@H](CCC(=O)O)NC(=O)[C@@H]2CCCN2C(=O)[C@H](Cc2c[nH]cn2)NC(=O)[C@H](CC(=O)O)NC(=O)[C@H](C(C)C)NC(=O)[C@H](CO)NC(=O)[C@@H]2CSSC[C@H](NC(=O)CN)C(=O)N[C@@H](CSSC[C@@H](C(N)=O)NC1=O)C(=O)N[C@@H](CO)C(=O)N[C@@H](Cc1c[nH]cn1)C(=O)N1CCC[C@H]1C(=O)N[C@@H](C)C(=O)N2	Chrna3/Chrnb2/Chrna6 with beta3 subunit	ion current, antagonist, two-electrode voltage clamp	Xenopus laevis oocytes	together with: 100 µM acetylcholine	362
FC(F)(F)c1ccc2nc(Sc3ncnc4c3nnn4Cc3ccccc3)oc2c1	NOX5	enzyme activity, inhibitor, Amplex Red	cell-free membranes		300 ± 100
O=[N+]([O-])c1cc(S(=O)(=O)c2cc([N+](=O)[O-])c(O)c([N+](=O)[O-])c2)cc([N+](=O)[O-])c1O	pchB (Pseudomonas aeruginosa, UniProt Q51507)	salicylate production, inhibitor		pH 8, 25 °C, together with: isochorismate 2 µM	100 ± 100
C=C(C)[C@@H]1[C@H]2OC(=O)[C@@H]1[C@]1(O)C[C@H]3O[C@]34C(=O)O[C@H]2[C@]14C	GABRA1/GABRG2/Gabrb2 (Homo sapiens, UniProt P14867+P18507+P63138)	chloride current, inhibitor, whole-cell voltage clamp	L929	3 min preincubation, together with: GABA at EC90	7980
CC(C)C[C@@H]1NC(=O)[C@H](CCC(=O)O)NC(=O)[C@@H]2CCCN2C(=O)[C@H](Cc2c[nH]cn2)NC(=O)[C@H](CC(N)=O)NC(=O)[C@H](C(C)C)NC(=O)[C@H]([C@@H](C)O)NC(=O)[C@@H]2CSSC[C@H](NC(=O)CN)C(=O)N[C@@H](CSSC[C@@H](C(N)=O)NC1=O)C(=O)N[C@@H](CO)C(=O)N[C@@H](Cc1c[nH]cn1)C(=O)N1CCC[C@H]1C(=O)N[C@@H](C)C(=O)N2	Neuronal acetylcholine receptor; alpha3/beta2	ion current, antagonist, two-electrode voltage clamp	Xenopus laevis oocytes	together with: 100 µM acetylcholine	7.1
O=C(O)c1ccccc1[As](=O)(O)O	Sphingomyelin phosphodiesterase (SMPD1, Homo sapiens, UniProt P17405)	enzyme activity, inhibitor		pH 5.0, together with: sphingomyelin substrate	9500
C[C@]12CC[C@@H]3c4ccc(OS(=O)(=O)F)cc4C[C@@H](CCCCCCCCC[S+]([O-])CCCC(F)(F)C(F)(F)F)[C@H]3[C@@H]1CC[C@@H]2O (some centres unmarked)	Estrogen receptor (ESR1, Homo sapiens, UniProt P03372)	binding, fluorescence polarisation		together with: Fluormone ligand	1.5
CC(C)NCC(O)COc1ccc(CC(N)=O)cc1 (centres unmarked)	Beta-1 adrenergic receptor, high-affinity state (Cavia porcellus, UniProt H0W3H1)	binding	lung membranes	high-affinity site, together with: [3H]dihydroalprenolol 8 nM	200
CC(C)C[C@@H]1NC(=O)[C@H](CCC(=O)O)NC(=O)[C@@H]2CCCN2C(=O)[C@H](Cc2c[nH]cn2)NC(=O)[C@H](CCCCC(=O)O)NC(=O)[C@H](CC(C)C)NC(=O)[C@H](Cc2c[nH]cn2)NC(=O)[C@@H]2CSSC[C@H](NC(=O)CN)C(=O)N[C@@H](CSSC[C@@H](C(N)=O)NC1=O)C(=O)N[C@@H](CO)C(=O)N[C@@H](Cc1c[nH]cn1)C(=O)N1CCC[C@H]1C(=O)N[C@@H](C)C(=O)N2	Neuronal acetylcholine receptor; alpha4/beta2 (Rattus norvegicus, UniProt P09483+P12390)	ACh-evoked current, antagonist, two-electrode voltage clamp	Xenopus laevis oocytes	together with: ACh 100 µM	280
COC(=O)Oc1c(Cl)cc2oc(=O)sc2c1[N+](=O)[O-]	Salicylate synthetase, Irp9	salicylate production, inhibitor		pH 7.5, 25 °C, together with: chorismate 2 µM	160000 ± 10000
CCCC[C@@H]1NC(=O)[C@H](CO)NC(=O)[C@@H]2CSSC[C@H](NC(=O)CN)C(=O)N[C@@H](CSSC[C@@H](C(N)=O)NC(=O)[C@H](CC(C)C)NC(=O)[C@H](CCC(=O)O)NC(=O)[C@@H]3CCCN3C(=O)[C@H](Cc3c[nH]cn3)NC(=O)[C@H](CC(N)=O)NC1=O)C(=O)N[C@@H](CO)C(=O)N[C@@H](Cc1c[nH]cn1)C(=O)N1CCC[C@H]1C(=O)N[C@@H](C)C(=O)N2	Chrna3/Chrnb2/Chrna6 with beta3 subunit	ion current, antagonist, two-electrode voltage clamp	Xenopus laevis oocytes	together with: 100 µM acetylcholine	19.9
Cn1cnc2ncn(Cc3nc(CCc4ccc(Cl)cc4)no3)c(=O)c21	Transient receptor potential cation channel subfamily A member 1 (Trpa1, Mus musculus, UniProt Q8BLA8)	calcium influx, antagonist, FlexStation calcium	HEK-293T transfected	together with: CS gas at EC50	280
Brc1ccc2nc(Sc3ncnc4c3nnn4Cc3ccccc3)oc2c1	NOX1	enzyme activity, inhibitor, Amplex Red	cell-free membranes		> 100000
O=C(NCC1CCN(Cc2ccccc2)CC1)c1cn(Cc2cccc(Cl)c2)nn1	Neuronal acetylcholine receptor subunit alpha-7 (Chrna7, Rattus norvegicus, UniProt Q05941)	binding	rat brain membranes	together with: radiolabelled α-bungarotoxin	1600

Molecule	target	test	test system	setting	IC50 [nM]
COc1ccc2nc(Sc3ncnc4c3nnn4Cc3ccccc3)oc2c1	CYBB	enzyme activity, inhibitor, MCLA chemiluminescence	cell-free membranes		> 100000
COP(=O)(OC)O/C(C)=C1\CCOC1=O	Acetylcholinesterase (ACHE, Homo sapiens, UniProt P22303)	enzyme activity, inhibitor, Ellman		30 min, 25 °C	70000
Cc1ccc2nc(Sc3ncnc4c3nnn4Cc3ccccc3)oc2c1	NOX1	enzyme activity, inhibitor, Amplex Red	cell-free membranes		> 100000
CC[C@H](C)[C@@H]1NC(=O)[C@H](CCC(=O)O)NC(=O)[C@@H]2CCCN2C(=O)[C@H](Cc2c[nH]cn2)NC(=O)[C@H](CC(N)=O)NC(=O)[C@H](C(C)C)NC(=O)[C@H](CO)NC(=O)[C@@H]2CSSC[C@H](NC(=O)CN)C(=O)N[C@@H](CSSC[C@@H](C(N)=O)NC1=O)C(=O)N[C@@H](CO)C(=O)N[C@@H](Cc1c[nH]cn1)C(=O)N1CCC[C@H]1C(=O)N[C@@H](C)C(=O)N2	Chrna3/Chrnb2/Chrna6 with beta3 subunit	ion current, antagonist, two-electrode voltage clamp	Xenopus laevis oocytes	together with: 100 µM acetylcholine	12.8
c1ccc(Cn2nnc3c(Sc4nc5ccccc5[nH]4)ncnc32)cc1	NOX1	enzyme activity, inhibitor, Amplex Red	cell-free membranes		> 100000
CNC(=O)Oc1cccc2ccccc12	Acetylcholinesterase (Ace, Anopheles gambiae, UniProt Q869C3)	enzyme activity, inhibitor, Ellman		10 min, room temperature, together with: acetylthiocholine	72.5
COc1ccc2c(c1)c(CC(=O)OCC[Si](C)(C)C)c(C)n2C(=O)c1ccc(Cl)cc1	ache	enzyme activity, inhibitor, Ellman			3320 ± 360
c1ccc(Cn2nnc3c(Sc4nc5ncccc5o4)ncnc32)cc1	CYBB	enzyme activity, inhibitor, MCLA chemiluminescence	cell-free membranes		3400 ± 700
O=C(O)c1cc(S(=O)(=O)Nc2ccccc2C(=O)O)ccc1Br	Salicylate synthetase, Irp9	salicylate production, inhibitor		pH 7.5, 25 °C, together with: chorismate 2 µM	> 160000
CC(C)Cc1ccc(C(C)C(=O)OCc2ccc(OC(=O)OCCC(C)(C)C)cc2)cc1 (centres unmarked)	ache	enzyme activity, inhibitor, Ellman			1930 ± 640
CC(C)c1ccc2nc(Sc3ncnc4c3nnn4Cc3ccccc3)oc2c1	NADPH oxidase 4 (NOX4, Homo sapiens, UniProt Q9NPH5)	enzyme activity, inhibitor, Amplex Red	cell-free membranes		> 100000
C[C@@H]1NC(=O)[C@H](CCCNC(=N)N)NC(=O)[C@H](CCCNC(=N)N)NC(=O)[C@H](Cc2c[nH]cn2)NC(=O)[C@H](CO)NC(=O)[C@@H]2CSSC[C@H](NC(=O)CN)C(=O)N[C@@H](CSSC[C@@H](C(N)=O)NC(=O)[C@H](CO)NC(=O)[C@H](CCCNC(=N)N)NC1=O)C(=O)N[C@@H](CO)C(=O)N[C@@H](Cc1c[nH]cn1)C(=O)N1CCC[C@H]1C(=O)N[C@@H](C)C(=O)N2	Neuronal acetylcholine receptor subunit alpha-7 (CHRNA7, Homo sapiens, UniProt P36544)	ion current, antagonist, two-electrode voltage clamp	Xenopus oocytes	holding -70 mV, together with: 100 µM acetylcholine	10100
CC(C)[C@@H]1NC(=O)[C@H](CO)NC(=O)[C@@H]2CSSC[C@H](NC(=O)CN)C(=O)N[C@@H](CSSC[C@@H](C(N)=O)NC(=O)[C@H](CCCNC(=N)N)NC(=O)[C@H](CCC(=O)O)NC(=O)[C@@H]3CCCN3C(=O)[C@H](Cc3c[nH]cn3)NC(=O)[C@H](CC(N)=O)NC1=O)C(=O)N[C@@H](CO)C(=O)N[C@@H](Cc1c[nH]cn1)C(=O)N1CCC[C@H]1C(=O)N[C@@H](C)C(=O)N2	Neuronal acetylcholine receptor; alpha3/beta2	ion current, antagonist, two-electrode voltage clamp	Xenopus laevis oocytes	together with: 100 µM acetylcholine	161
COc1ccc(C(=O)NC(Sc2ccc(Cl)cc2)C(Cl)(Cl)Cl)cc1 (centres unmarked)	Transient receptor potential cation channel subfamily A member 1 (TRPA1, Homo sapiens, UniProt O75762)	MO-induced calcium influx, antagonist, FLIPR calcium		3 min preincubation, together with: 30 µM mustard oil	2230 ± 580
Clc1ccc2nc(Sc3ncnc4c3nnn4Cc3ccccc3)oc2c1	NOX5	enzyme activity, inhibitor, Amplex Red	cell-free membranes		700 ± 20
CC(C)C[C@@H]1NC(=O)[C@H](CCC(=O)O)NC(=O)[C@@H]2CCCN2C(=O)[C@H](Cc2c[nH]cn2)NC(=O)[C@H](CCCCCC(=O)O)NC(=O)[C@H](CC(C)C)NC(=O)[C@H](Cc2c[nH]cn2)NC(=O)[C@@H]2CSSC[C@H](NC(=O)CN)C(=O)N[C@@H](CSSC[C@@H](C(N)=O)NC1=O)C(=O)N[C@@H](CO)C(=O)N[C@@H](Cc1c[nH]cn1)C(=O)N1CCC[C@H]1C(=O)N[C@@H](C)C(=O)N2	Neuronal acetylcholine receptor; alpha3/beta2	ion current, antagonist, two-electrode voltage clamp	Xenopus laevis oocytes	together with: 100 µM acetylcholine	1.28

Repeated from above:
Molecule	target	test	test system	setting	IC50 [nM]
CC(C)c1ccc2nc(Sc3ncnc4c3nnn4Cc3ccccc3)oc2c1	NADPH oxidase 4 (NOX4, Homo sapiens, UniProt Q9NPH5)	enzyme activity, inhibitor, Amplex Red	cell-free membranes		> 100000
C[C@@H]1NC(=O)[C@H](CCCNC(=N)N)NC(=O)[C@H](CCCNC(=N)N)NC(=O)[C@H](Cc2c[nH]cn2)NC(=O)[C@H](CO)NC(=O)[C@@H]2CSSC[C@H](NC(=O)CN)C(=O)N[C@@H](CSSC[C@@H](C(N)=O)NC(=O)[C@H](CO)NC(=O)[C@H](CCCNC(=N)N)NC1=O)C(=O)N[C@@H](CO)C(=O)N[C@@H](Cc1c[nH]cn1)C(=O)N1CCC[C@H]1C(=O)N[C@@H](C)C(=O)N2	Neuronal acetylcholine receptor subunit alpha-7 (CHRNA7, Homo sapiens, UniProt P36544)	ion current, antagonist, two-electrode voltage clamp	Xenopus oocytes	holding -70 mV, together with: 100 µM acetylcholine	10100
CC(C)[C@@H]1NC(=O)[C@H](CO)NC(=O)[C@@H]2CSSC[C@H](NC(=O)CN)C(=O)N[C@@H](CSSC[C@@H](C(N)=O)NC(=O)[C@H](CCCNC(=N)N)NC(=O)[C@H](CCC(=O)O)NC(=O)[C@@H]3CCCN3C(=O)[C@H](Cc3c[nH]cn3)NC(=O)[C@H](CC(N)=O)NC1=O)C(=O)N[C@@H](CO)C(=O)N[C@@H](Cc1c[nH]cn1)C(=O)N1CCC[C@H]1C(=O)N[C@@H](C)C(=O)N2	Neuronal acetylcholine receptor; alpha3/beta2	ion current, antagonist, two-electrode voltage clamp	Xenopus laevis oocytes	together with: 100 µM acetylcholine	161
COc1ccc(C(=O)NC(Sc2ccc(Cl)cc2)C(Cl)(Cl)Cl)cc1 (centres unmarked)	Transient receptor potential cation channel subfamily A member 1 (TRPA1, Homo sapiens, UniProt O75762)	MO-induced calcium influx, antagonist, FLIPR calcium		3 min preincubation, together with: 30 µM mustard oil	2230 ± 580
